Measured values collected from several papers.
Each line is one published result; not all experiments were run side by side. Several values in a cell are separate wells, animals, samples, runs or records. Numbers after ± are the reported error.
Chain of UniProt P29320 (whole entry, looked up): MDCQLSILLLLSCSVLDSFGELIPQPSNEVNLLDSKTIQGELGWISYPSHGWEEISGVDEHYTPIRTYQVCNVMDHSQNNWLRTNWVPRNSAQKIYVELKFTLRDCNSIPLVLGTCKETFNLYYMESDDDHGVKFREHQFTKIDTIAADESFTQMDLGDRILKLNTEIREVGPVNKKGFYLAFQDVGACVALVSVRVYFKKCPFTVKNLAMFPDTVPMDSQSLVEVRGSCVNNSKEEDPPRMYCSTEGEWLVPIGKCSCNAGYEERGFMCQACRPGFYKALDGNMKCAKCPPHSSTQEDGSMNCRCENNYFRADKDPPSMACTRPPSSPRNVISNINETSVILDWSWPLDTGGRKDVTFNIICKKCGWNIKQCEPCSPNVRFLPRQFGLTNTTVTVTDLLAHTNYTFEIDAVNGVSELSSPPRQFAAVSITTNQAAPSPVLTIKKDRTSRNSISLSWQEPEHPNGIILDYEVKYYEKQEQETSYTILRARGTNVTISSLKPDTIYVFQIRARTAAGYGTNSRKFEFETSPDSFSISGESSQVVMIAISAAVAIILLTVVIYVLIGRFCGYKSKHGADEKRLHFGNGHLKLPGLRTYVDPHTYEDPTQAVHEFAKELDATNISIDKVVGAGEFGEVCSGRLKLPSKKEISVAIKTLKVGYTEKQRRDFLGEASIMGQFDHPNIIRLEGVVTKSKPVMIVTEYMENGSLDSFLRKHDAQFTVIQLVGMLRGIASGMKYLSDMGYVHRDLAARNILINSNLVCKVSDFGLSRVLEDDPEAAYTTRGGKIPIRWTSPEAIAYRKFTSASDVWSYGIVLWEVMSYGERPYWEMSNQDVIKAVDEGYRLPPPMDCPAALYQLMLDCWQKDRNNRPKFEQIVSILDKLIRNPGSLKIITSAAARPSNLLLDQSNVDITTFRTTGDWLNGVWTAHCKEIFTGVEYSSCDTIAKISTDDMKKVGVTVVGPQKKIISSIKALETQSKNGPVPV
Chain of UniProt P08684 (whole entry, looked up): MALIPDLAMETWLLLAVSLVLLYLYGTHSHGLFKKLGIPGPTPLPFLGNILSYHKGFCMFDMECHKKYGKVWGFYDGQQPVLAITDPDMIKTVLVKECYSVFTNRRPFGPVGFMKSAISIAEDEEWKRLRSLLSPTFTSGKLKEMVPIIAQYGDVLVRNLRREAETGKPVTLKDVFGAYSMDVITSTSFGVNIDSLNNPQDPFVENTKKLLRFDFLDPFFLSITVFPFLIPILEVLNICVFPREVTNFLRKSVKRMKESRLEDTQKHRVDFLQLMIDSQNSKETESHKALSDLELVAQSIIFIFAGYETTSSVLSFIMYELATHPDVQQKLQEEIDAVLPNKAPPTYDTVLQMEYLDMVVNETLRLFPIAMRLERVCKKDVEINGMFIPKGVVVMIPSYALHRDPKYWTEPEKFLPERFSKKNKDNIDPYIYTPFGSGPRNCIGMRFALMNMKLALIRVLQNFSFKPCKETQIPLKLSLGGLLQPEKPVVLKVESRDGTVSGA

Compound	tested on	assay	system	setting	how to read	quantity	value
C=CC(=O)Nc1cccc(Cn2ncc3cnc(Nc4cnn(CCOC)c4)nc32)c1	NDR2 human	binding, KINOMEscan	–	100 nM	lower = stronger binding	percent of control	100%
CCCC[C@H](NC(=O)CCCCCCCNC(=O)CN1CCN(CC(=O)O)CCN(CC(=O)O)CC1)C(=O)N[C@H]1CC(=O)NCCCC[C@@H](C(N)=O)NC(=O)[C@H](Cc2c[nH]c3ccccc23)NC(=O)[C@H](CCCNC(=N)N)NC(=O)[C@@H](Cc2ccccc2)NC(=O)[C@H](Cc2c[nH]cn2)NC1=O [technetium-99m labelled]	–	–	C57 mouse, skin	intravenous, 0.037 MBq, 4 h	–	tissue uptake	0.04 ± 0.03 %ID/g
CCC1NC2CC3(C(=O)N(OC)c4ccccc43)C3OCC2C1C3O (stereo not drawn)	HT-22	CCK-8	–	up to 100 µM, 24 h	–	viability	no effect
C=CC(=O)N1CCCC(n2c(=O)c3ncccc3n(Cc3ccc(Oc4ccccc4)cc3)c2=O)C1 (stereo not drawn)	A20	cell growth or viability, MTT	–	72 h	–	IC50	0.8 µM
CCN(CC)CC(=O)Nc1cccc(-n2cc(-c3ccc4ccc(-c5cn(-c6cccc(NC(=O)CN(CC)CC)c6)nn5)cc4c3)nn2)c1	RCC4	PCR angiogenesis array, refers to: PROK2	–	5 x IC50, 2 h, normoxia	reference: untreated	fold regulation	1.02
COC1CN([C@H]2CC[C@H]([C@@]3(C)Oc4c(Cl)cc(C(=O)NCc5c(SC)cc(C)[nH]c5=O)c(C)c4O3)CC2)C1	–	RNA-seq, refers to: PGLYRP1 mouse homolog	mouse, HT-1376 xenograft, whole blood	dose not given	reference: vehicle	log2 fold change	0.167
COc1ccccc1-c1ccncc1C(=O)Nc1nnc(OCc2ccc(Cl)cc2)s1	MDA-MB-231	–	–	12 µM, single replicate	reference: untreated	colony survival	67.6% and 74.1%
CCCC[C@H](NC(=O)COCCOCCNC(=O)CN1CCN(CC(=O)O)CCN(CC(=O)O)CC1)C(=O)N[C@H]1CC(=O)NCCCC[C@@H](C(N)=O)NC(=O)[C@H](Cc2c[nH]c3ccccc23)NC(=O)[C@H](CCCNC(=N)N)NC(=O)[C@@H](Cc2ccccc2)NC(=O)[C@H](Cc2c[nH]cn2)NC1=O [technetium-99m labelled]	–	–	C57 mouse, liver	intravenous, 0.037 MBq, 2 h	–	tissue uptake	0.45 ± 0.04 %ID/g
Cc1nn(-c2cccc(N)c2)c(=O)c2cnc(Nc3ccc(N4CCNCC4)cc3)nc12	EPHA3 (Homo sapiens, UniProt P29320)	kinase activity, inhibitor, SelectScreen kinase profiling	–	–	–	IC50	> 10 µM
C[n+]1cccc2cc(/C=N/NC(=O)c3ccc4ccc(C(=O)N/N=C/c5ccc6c(ccc[n+]6C)c5)nc4n3)ccc21	telomeric G4 DNA hybrid-2	FRET melting	–	1 µM, DNA 0.2 µM	–	ΔTm	22.4 ± 0.6 °C
CC(C)(C)c1cc(-c2ccc3cccnc3n2)nc(-c2ccc3cccnc3n2)c1.[Cl-].[Cl-].[Ru+2].c1ccc2cc3nc4c5cccnc5c5ncccc5c4nc3cc2c1	B16-F10	cytotoxicity, resazurin	–	dark	–	EC50	20.8 µM
CC(C)C[C@H](NC(=O)[C@H](Cc1ccc(O)cc1)NC(=O)[C@@H](CCCNC(=N)N)NC(=O)[C@@H](CO)NC(=O)[C@H](Cc1ccccc1)NC(=O)[C@H](CC1CCCCC1)NC(=O)[C@H](CC(=O)O)NC(=O)CN1CCN(CC(=O)O)CCN(CC(=O)O)CCN(CC(=O)O)CC1)C(=O)N[C@@H](Cc1c[nH]c2ccccc12)C(=O)N[C@@H](CO)C(=O)O [copper-64 labelled]	–	–	human, thyroid	concentration not given, 3 h	–	activity concentration	2650 Bq/mL and 1740 Bq/mL and 1420 Bq/mL and 2340 Bq/mL and 1480 Bq/mL and 1790 Bq/mL
CNS(=O)(=O)Nc1nccc(Cc2c(C)c3ccc(Oc4ncccc4F)cc3oc2=O)c1F	NCI-H2009	cell viability	–	7 days	–	IC50	0.0287 µM
O=c1c(-c2ccc(Cl)c(CN3CCOCC3)c2)coc2cc(O)ccc12	VCaP	RNA-seq	–	1 µM, added: DHEA 200 nM	–	share of DHEA-affected genes regulated	87%
Cc1ncsc1-c1ccc(C(C)NC(=O)C2CC(O)CN2C(=O)C(NC(=O)CCCCCCCCCCN2CCCC(Nc3ncc(Cl)c(Nc4ccccc4S(=O)(=O)C(C)C)n3)C2)C(C)(C)C)cc1 (stereo not drawn)	22Rv1	RNA-seq, refers to: PRKAR2A-AS1	–	concentration not given	reference: DMSO	log2 fold change	-1.81
Cn1ncc(-c2ccc3c(=O)[nH]nc(CN)c3c2)c1-c1c(F)c(Cl)cc(OC2CC2)c1C#N	SUM-159-PT	cell viability, inhibitor, CellTiter-Glo	–	120 h, baseline-subtracted	–	IC50	4.09 µM
CCCCCCCCCCCC(=O)N[C@H](CO)C[C@@H](O)c1ccccc1	HeLa	CERT activity, HPLC-MS/MS lipidomics, refers to: sphingomyelin 16	–	1 µM, 24 h, not cell-number normalised	–	sphingomyelin level	811000 pmol/sample and 725000 pmol/sample and 816000 pmol/sample
CC(=O)NCC(=O)N[C@@H](Cc1ccccc1)C(=O)N[C@@H](Cc1ccccc1)C(=O)N[C@@H](Cc1ccc(O)cc1)C(=O)NCC(=O)N[C@@H](Cc1ccc(O)cc1)C(=O)NCC(=O)N[C@@H](CO)C(=O)N[C@@H](CO)C(=O)N[C@@H](CO)C(=O)N[C@@H](CCCNC(=N)N)C(=O)N[C@@H](CCCNC(=N)N)C(=O)N[C@@H](C)C(=O)N1CCC[C@H]1C(=O)N[C@@H](CCC(N)=O)C(=O)N[C@H](C(=O)O)[C@@H](C)O	mouse dermal papilla cells	western blot	–	100 nM	–	GSK3β phosphorylation	increased
NC(=O)c1ccc(-c2ccccc2Cl)c2c3c([nH]c12)CCC(N)C3 (stereo not drawn)	B16-F10	cell growth	–	96 h	–	IC50	0.02 µM
CCOc1cncc(-c2ccc(NC(=O)C3(c4ccnc(NS(=O)(=O)C5CC5)n4)CCOCC3)nc2)n1	human Endometrial cancer	cell proliferation, inhibitor, CellTiter-Glo viability	–	72 h, 0.1% DMSO	–	IC50	10 µM

Compound	tested on	assay	system	setting	how to read	quantity	value
CSC(=S)N/N=C(\C)c1ccc(S(=O)(=O)N2CCC(C)CC2)cc1	HCT-116	flow cytometry	–	3.66 µM (IC50), 72 h	–	cells in G0/G1 phase	39.6%
CSCC[C@@H](N)C(=O)N[C@@H](CC(C)C)C(=O)N[C@@H](CCCNC(=N)N)C(=O)N[C@@H](Cc1c[nH]c2ccccc12)C(=O)N[C@@H](CO)C(=O)N[C@@H](CCCNC(=N)N)C(=O)N[C@@H](CCCCN)C(=O)N[C@@H](CCSC)C(=O)N1CCC[C@H]1C(=O)N[C@@H](CS)C(=O)N[C@H](C(=O)N[C@@H](CO)C(=O)O)C(C)C	SUP-T1	CXCL12-induced Erk phosphorylation, phospho flow cytometry	–	concentration not given, added: CXCL12	–	inhibition	no inhibition
Cn1ncc2cc(-c3cncc(Cl)c3N3CCC4(CCNC4=O)CC3)ccc21	LS174T	microarray, refers to: DAGLA	–	concentration not given, 4 h, gene set DGL-alpha	reference: untreated cells	fold change in expression	-1.86
Cc1nc(Nc2ncc(C(=O)Nc3c(C)cccc3Cl)s2)cc(N2CCN(C(=O)CN)CC2)n1	KU812	flow cytometry	–	concentration not given, 6 h	–	late apoptotic cells	10.3% and 8.56% and 9.96%
COc1ccc2c(c1)c(CC(=O)[Se]CC(=O)Nc1cccc(C(F)(F)F)c1)c(C)n2C(=O)c1ccc(Cl)cc1	NCI60 breast subpanel	NCI60 five-dose screen	–	–	–	GI50	1.95 µM
CC(=O)[O-].O.O.O.O.[Ni+2].[O-]c1ccc(Br)cc1C=NCCN1CCOCC1	–	FRAP	–	40 µM	–	ferric reducing power	11%
Nc1ncc(-c2cc(-c3cnn(CC(F)(F)F)c3)ncc2F)nc1C(=O)NC1CNCC(F)C1 (stereo not drawn)	LCK	KINOMEscan	–	1 µM	reference: DMSO control	remaining binding	95%
COC(=O)c1cc(NC2=NC(=O)C(=Cc3ccc(C)cc3)S2)ccc1OC(C)=O	MCF7	GC-MS, refers to: Tyrosine	–	1 µM	reference: DMSO	metabolite level	-0.97 fold change
Cc1ccncc1.[Cl-].[Cl-].[Ru+2].c1cc(-c2ccc3cccnc3n2)nc(-c2ccc3cccnc3n2)c1.c1ccc2cc3nc4c5cccnc5c5ncccc5c4nc3cc2c1	B16-F10	–	–	visible light 100 J/cm2	reference: dark EC50 over light EC50	phototherapeutic index	82
CSC(=S)N/N=C(\C)c1ccc(Nc2nnc(-c3ccc(Cl)cc3)c3ccccc23)cc1	HepG2	cell growth or viability, MTT	–	5 µM, 24 h	–	viability	7.89%
CC(C)(C)c1cc(-c2ccc3cc4ccccc4nc3n2)nc(-c2ccc3cc4ccccc4nc3n2)c1.Cc1ccncc1.[Cl-].[Cl-].[Ru+2].c1ccc2cc3nc4c5cccnc5c5ncccc5c4nc3cc2c1	B16-F10	resazurin	–	added: light 523 nm, 20 mW, 100 J/cm2	–	EC50	13.7 µM
C=C(NC(=O)c1csc(-c2nc3c(cc2O)-c2nc(cs2)C(=O)NC(C(C)O)C(=O)NC(=C(C)OC)c2nc(cs2)C(=O)NC2c4nc(cs4)C(=O)NC(COC(=O)c4c5c6c(cccc6n4O)COC(=O)C(OC4CC(C)(O)C(N(C)C)C(C)O4)C2OC5)c2nc-3cs2)n1)C(N)=O (stereo not drawn)	–	–	cynomolgus monkey, female, plasma	intravenous infusion, 3 mg/kg multiple doses, day 7	–	MRT(0-last)	1.33 h
CNC(=O)C1CCCN(C(=O)C2CC3CCC2N3C(=O)[C@@H]2C[C@@H](O)CN2C(=O)NCc2cccc(Cl)c2F)C1 (mixture of isomers)	Cytochrome P450 3A4 (CYP3A4, Homo sapiens, UniProt P08684)	inhibitor	human liver microsomes	added: testosterone	–	IC50	> 50 µM
CN1CCCNC(=O)c2cccc(c2)C(=O)NCCCN(C)CCCNc2cccc3c2C(=O)c2cccc(c2C3=O)NCCC1	SAS	RNA-Seq, refers to: WASHC4 mRNA	–	1 µM, 6 h	reference: untreated cells	log2 fold change	-1.01
N#Cc1cccc(/C=C/C(=O)c2ccc(O)cc2)c1	U-87 MG	refers to: ALOXE3	–	concentration not given	reference: untreated	fold change	31
CC(C)c1ccc(N(C)c2ccc3c(c2)OCC[C@H]3CNc2cnccc2C(=O)O)cc1	SCaBER	cell viability, CellTiter-Glo	–	7 days	–	IC50	0.0152 µM
C1=[N+]2CCCC[N+]3=Cc4ccc5[n]4[Au-]23[n]2c1ccc2-c1nc2ccccc2nc1-5.F[P-](F)(F)(F)(F)F	U-251	NCI60 five-dose screen	–	–	–	TGI	5.41 -log M
O=C(Nc1cnccc1-c1ccc([18F])nc1)c1ccnc(NC(=O)C2CC2)c1	–	–	FVB/NJ mouse, both sexes, brain	intravenous, 50 min	–	SUV	0.046
C=C(NC(=O)c1csc(-c2cccnc2)n1)C(=O)NC(=C)C(=O)OC	NCI-H358	cell viability	–	–	–	EC50	5.7 µM

Some of these lines once more:
Compound	tested on	assay	system	setting	how to read	quantity	value
COc1ccc2c(c1)c(CC(=O)[Se]CC(=O)Nc1cccc(C(F)(F)F)c1)c(C)n2C(=O)c1ccc(Cl)cc1	NCI60 breast subpanel	NCI60 five-dose screen	–	–	–	GI50	1.95 µM
CC(=O)[O-].O.O.O.O.[Ni+2].[O-]c1ccc(Br)cc1C=NCCN1CCOCC1	–	FRAP	–	40 µM	–	ferric reducing power	11%
Nc1ncc(-c2cc(-c3cnn(CC(F)(F)F)c3)ncc2F)nc1C(=O)NC1CNCC(F)C1 (stereo not drawn)	LCK	KINOMEscan	–	1 µM	reference: DMSO control	remaining binding	95%
